Measured values from different studies.
Lines come from different studies, so protocols differ. ± gives the spread as reported.

Structure (SMILES)	tested on	assay	test system	setting	measurement	result
O=C(Cc1csc2nc(-c3ccc(Br)cc3)cn12)NN1C(=O)CSC12CCCCC2	vesicular stomatitis virus	viral cytopathic effect	HEL	–	EC50	> 100 µg/mL
O=C1Nc2ccccc2/C1=N/NC(=S)N/N=C1\C(=O)Nc2ccccc21	vesicular stomatitis virus	viral replication	HeLa	–	EC50	> 100 µM
CN/C(=N\[N+](=O)[O-])NCc1cnc(Cl)s1	Folsomia candida	reproduction, OECD 232	LUFA 2.2 soil	28 days	EC50	0.05 mg/kg dry soil
NC(=O)c1ncn([C@@H]2O[C@H](CO)[C@@H](O)[C@H]2O)n1	Influenza A virus (H1N1)	antiviral activity	MDCK	–	EC50	2.3 to 3.4 µM
O=C(N/N=C1\C(=O)Nc2ccc([N+](=O)[O-])cc21)N/N=C1\C(=O)Nc2ccc([N+](=O)[O-])cc21	vesicular stomatitis virus	viral replication	HeLa	–	EC50	> 100 µM
CN[C@@](C)(C[18F])C(=O)O	–	–	SCID mouse A549 xenograft, lung	60 min, post injection	tissue uptake	2.1 ± 0.4 %ID/g
Cc1ccc(S(=O)(=O)N2C(=O)CSC2c2ccc(C(C)C)cc2)cc1 (centres unmarked)	influenza B virus	viral cytopathicity, visual CPE scoring	MDCK, B/Ned/537/05	–	EC50	> 100 µM
O=C(N/N=C1\C(=O)Nc2ccccc21)N/N=C1\C(=O)Nc2ccccc21	vesicular stomatitis virus	viral replication	HeLa	–	EC50	> 100 µM
O=C(Cc1csc2nc(-c3ccc(Br)cc3)cn12)NN1C(=O)CSC12CCC(c1ccc(O)cc1)CC2 (centres unmarked)	vesicular stomatitis virus	viral cytopathic effect	HEL	–	EC50	> 100 µg/mL
Cc1ccc(S(=O)(=O)N2C(=O)CSC2c2ccc([N+](=O)[O-])cc2)cc1 (centres unmarked)	influenza B virus	viral cytopathicity, visual CPE scoring	MDCK, B/Ned/537/05	–	EC50	> 100 µM
CC1SC2(CCC(c3ccc(O)cc3)CC2)N(NC(=O)Cc2csc3nc(-c4ccc(Br)cc4)cn23)C1=O (centres unmarked)	vesicular stomatitis virus	viral cytopathic effect	HEL	–	EC50	> 100 µg/mL
Cc1ccc(S(=O)(=O)N2C(=O)CSC2c2ccccc2F)cc1 (centres unmarked)	influenza B virus	viral cytopathicity, visual CPE scoring	MDCK, B/Ned/537/05	–	EC50	> 100 µM
O=C(Cc1csc2nc(-c3ccc(Br)cc3)cn12)NN1C(=O)CSC12CCCC2	vesicular stomatitis virus	viral cytopathic effect	HEL	–	EC50	> 100 µg/mL
Cc1ccc(S(=O)(=O)N2C(=O)CSC2c2ccccc2[N+](=O)[O-])cc1 (centres unmarked)	influenza B virus	viral cytopathicity, visual CPE scoring	MDCK, B/Ned/537/05	–	EC50	> 100 µM
Nc1ncnc2c1ncn2C[C@H](O)CO	vesicular stomatitis virus	viral replication	HeLa	–	EC50	> 250 µM
CC1SC2(CCC(c3ccccc3)CC2)N(NC(=O)Cc2csc3nc(-c4ccc(Br)cc4)cn23)C1=O (centres unmarked)	vesicular stomatitis virus	viral cytopathic effect	HEL	–	EC50	> 100 µg/mL
Cc1ccc(S(=O)(=O)N2C(=O)CSC2c2ccccc2O)cc1 (centres unmarked)	influenza B virus	viral cytopathicity, visual CPE scoring	MDCK, B/Ned/537/05	–	EC50	> 100 µM

Excerpt of the above:
Structure (SMILES)	tested on	assay	test system	setting	measurement	result
CC1SC2(CCC(c3ccc(O)cc3)CC2)N(NC(=O)Cc2csc3nc(-c4ccc(Br)cc4)cn23)C1=O (centres unmarked)	vesicular stomatitis virus	viral cytopathic effect	HEL	–	EC50	> 100 µg/mL
Cc1ccc(S(=O)(=O)N2C(=O)CSC2c2ccccc2F)cc1 (centres unmarked)	influenza B virus	viral cytopathicity, visual CPE scoring	MDCK, B/Ned/537/05	–	EC50	> 100 µM
